Experimental data collected from several papers.
Numbered parts are unrelated; each lists some results of a single study. Positions count from the first letter of the parent shown.

Block 1 — method: aptamer microarray, sandwich; molecule type: DNA with 2'F-ANA; sample: in vitro; concentration: 200 nM; added: Cy3 exosite-II aptamer, 400 nM; reading: higher = stronger binding; measurement: mean fluorescence intensity
Target: Prothrombin, mature alpha-thrombin (F2, Homo sapiens, UniProt P00734)
Setting: whole 15-mer aptamer, many near background
Oligonucleotide = GGTTGGTGTGGTTGG (2'F-ANA at 2 3 4 5 7 10 12 13 14 15); result = 49.4 a.u.
Oligonucleotide = GGTTGGTGTGGTTGG (2'F-ANA at 4 6 9 10 13 14 15); result = 59.5 a.u.
Oligonucleotide = GGTTGGTGTGGTTGG (2'F-ANA at 1 3 6 10 12 13 14 15); result = 60.5 a.u.

Block 2 — target: CCNB1, cyclin fold, Cln2 fusion (human); method: yeast growth competition, sequencing; sample: yeast; setting: strong parent motif; baseline: not given; reading: higher = stronger binding; measurement: normalised enrichment score
Parent: MASTL docking peptide (human); PMIAKNLMCELDE; partner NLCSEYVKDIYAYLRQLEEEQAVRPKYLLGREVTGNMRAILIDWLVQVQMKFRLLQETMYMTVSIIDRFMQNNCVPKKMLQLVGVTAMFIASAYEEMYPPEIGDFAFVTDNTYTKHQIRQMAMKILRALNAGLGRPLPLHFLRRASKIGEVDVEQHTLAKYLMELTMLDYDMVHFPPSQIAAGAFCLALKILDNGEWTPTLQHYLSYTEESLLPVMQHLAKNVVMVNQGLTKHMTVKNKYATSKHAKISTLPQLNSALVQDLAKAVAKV
Change = M2K; result = 2.73
Change = M2F; result = 1.71
Change = L11M; result = 0.407

Block 3 — method: DHFR PCA, deep sequencing; sample: yeast; added: (+)-ABA 4.8 µM; baseline: wild-type fitted maximum; reading: higher = stronger binding; measurement: relative binding score
Target: ABI1, truncated, D143A, DHFR fusion (Arabidopsis thaliana)
Setting: methotrexate growth selection, single substitutions
Parent: PYL1, truncated, DHFR fusion (Arabidopsis thaliana); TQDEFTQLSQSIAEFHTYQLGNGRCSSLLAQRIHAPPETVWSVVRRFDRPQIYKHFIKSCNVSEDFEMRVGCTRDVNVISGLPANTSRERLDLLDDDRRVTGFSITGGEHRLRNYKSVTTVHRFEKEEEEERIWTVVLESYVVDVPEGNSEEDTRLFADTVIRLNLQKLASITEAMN; partner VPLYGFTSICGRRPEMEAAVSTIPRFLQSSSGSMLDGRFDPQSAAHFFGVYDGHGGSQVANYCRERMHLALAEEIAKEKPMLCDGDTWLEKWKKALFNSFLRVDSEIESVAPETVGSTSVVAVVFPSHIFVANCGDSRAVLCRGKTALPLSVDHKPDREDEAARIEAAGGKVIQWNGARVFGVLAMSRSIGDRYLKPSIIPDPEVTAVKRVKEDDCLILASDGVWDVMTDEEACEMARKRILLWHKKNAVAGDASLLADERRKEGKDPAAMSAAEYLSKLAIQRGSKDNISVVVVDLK
Change = T160D; result = -5.8%
Change = E125W; result = 61.1%
Change = L169F; result = 1.6%

Single results of other studies
Molecule = PhoQ, residues 284 288 289 292 302 303 SNGLAW; target = PhoP, residues 12 14 15 18 19 FWNTL (Escherichia coli, UniProt P23836); test = Sort-seq, measured: YFP reporter; test system = E. coli; setting = PhoQ-PhoP variant library, added: 10 µM Mg2+; scale = baseline: high Mg2+ state, higher = stronger signaling; measurement = fold induction; result = 3.86

Some of these lines once more (block 3):
Change = E125W; result = 61.1%
